Results from different studies.
Protocols differ between the studies behind these lines.
Organism: Escherichia coli

CC[C@H](C)[C@H](NC(=O)CNC(=O)[C@H](CC(=O)O)NC(=O)[C@H](CCCNC(=N)N)NC(=O)[C@@H](NC(=O)[C@H](CC(N)=O)NC(=O)[C@H](CCCNC(=N)N)NC(=O)CNC(=O)[C@@H](NC(=O)[C@H](CCCCN)NC(=O)[C@H](CCC(=O)O)NC(=O)[C@@H](NC(=O)[C@H](CCCCN)NC(=O)[C@H](CCCCN)NC(=O)[C@H](Cc1ccccc1)NC(=O)[C@@H](NC(=O)[C@H](CCCCN)NC(=O)[C@H](Cc1c[nH]c2ccccc12)NC(=O)[C@@H](N)CCCNC(=N)N)[C@@H](C)CC)[C@@H](C)CC)C(C)C)C(C)C)C(=O)N[C@H](C(=O)N[C@@H](CCCCN)C(=O)N[C@@H](C)C(=O)NCC(=O)N1CCC[C@H]1C(=O)N[C@@H](C)C(=O)N[C@H](C(=O)N[C@@H](C)C(=O)N[C@H](C(=O)N[C@H](C(=O)NCC(=O)N[C@@H](CCC(N)=O)C(=O)N[C@@H](C)C(=O)N[C@@H](C)C(=O)N[C@H](C(=O)N[C@H](C(=O)N[C@H](C(=O)N[C@@H](CCC(=O)O)C(N)=O)C(C)C)C(C)C)[C@@H](C)O)C(C)C)C(C)C)C(C)C)[C@@H](C)CC
MIC (KCTC 1682, Mueller-Hinton broth; 16 h, 37 °C; growth inhibition over 99%): 2 µM

CC[C@H](C)[C@H](NC(=O)[C@@H](NC(=O)[C@H](C)NC(=O)[C@H](CCCCN)NC(=O)[C@H](CCCNC(=N)N)NC(=O)CNC(=O)[C@H](CCSC)NC(=O)[C@H](CCC(=O)O)NC(=O)[C@H](CCC(N)=O)NC(=O)[C@@H](NC(=O)[C@H](CCCCN)NC(=O)[C@H](CC(N)=O)NC(=O)[C@H](CCCCN)NC(=O)[C@H](CC(C)C)NC(=O)[C@H](Cc1ccc(O)cc1)NC(=O)[C@H](CCC(N)=O)NC(=O)[C@H](CCCNC(=N)N)NC(=O)[C@@H](NC(=O)[C@@H](NC(=O)[C@H](CCC(=O)O)NC(=O)[C@H](CCCCN)NC(=O)CN)[C@@H](C)O)[C@@H](C)CC)[C@@H](C)CC)C(C)C)C(=O)O
MIC (broth microdilution; K88, Mueller-Hinton broth; 37 °C): 54 µM

CC[C@H](C)[C@H](NC(=O)[C@H](CC(C)C)NC(=O)[C@H](CCCNC(=N)N)NC(=O)[C@@H](N)CCCNC(=N)N)C(=O)N[C@@H](CCCNC(=N)N)C(=O)N[C@@H](CCCCN)C(=O)N[C@@H](CC(C)C)C(=O)N[C@@H](CCCCN)C(=O)NCC(=O)N[C@@H](CC(C)C)C(=O)N[C@@H](CCCCN)C(=O)N[C@@H](CCCCN)C(=O)N[C@@H](Cc1ccc(O)cc1)C(=O)N[C@@H](CC(C)C)C(=O)N[C@@H](Cc1ccc(O)cc1)C(=O)N[C@@H](Cc1ccccc1)C(=O)N[C@@H](CCCCN)C(=O)N[C@@H](CC(C)C)C(=O)N[C@@H](CCC(N)=O)C(=O)N[C@@H](CC(C)C)C(=O)N[C@@H](CC(C)C)C(=O)N[C@@H](CCCCN)C(=O)N[C@@H](CCCCN)C(N)=O
MIC (KCTC 1682, Mueller-Hinton broth; with: 4.5 mM KCl): 16 µM

C[C@H]1COCCN1c1nc(NCc2cccnc2C(F)(F)F)c2cccnc2n1
MIC (broth microdilution; EC1): 128 µg/mL

CC[C@H](C)[C@H](N)C(=O)N[C@@H](CC(C)C)C(=O)NCC(=O)N[C@H](CCCNC(=N)N)C(=O)N[C@H](C(=O)N[C@@H](Cc1c[nH]c2ccccc12)C(=O)N[C@@H](CCCCN)C(=O)NCC(=O)N[C@H](C(=O)N[C@@H](CCCCN)C(=O)N[C@@H](CC(=O)O)C(=O)N[C@H](C(=O)N[C@@H](CC(C)C)C(N)=O)[C@@H](C)CC)[C@@H](C)CC)[C@@H](C)CC
MIC (broth microdilution; ATCC 25922; with: human serum 10%): 12.5 µM

N=C(N)NCCC[C@H](NC(=O)[C@H](Cc1c[nH]c2ccccc12)NC(=O)[C@@H](N)CCCNC(=N)N)C(=O)N[C@@H](Cc1c[nH]c2ccccc12)C(=O)N[C@@H](Cc1ccccc1)C(=O)N[C@@H](CCC(N)=O)C(=O)N[C@@H](Cc1ccccc1)C(=O)N[C@@H](CCC(N)=O)C(=O)N[C@@H](Cc1ccccc1)C(=O)N[C@@H](CCCCN)C(N)=O
MIC (broth microdilution, optical density): 4.4 µM

CC[C@H](C)[C@H](NC(=O)CNC(=O)[C@H](CC(=O)O)NC(=O)[C@H](CCCNC(=N)N)NC(=O)[C@@H](NC(=O)[C@H](CC(N)=O)NC(=O)[C@H](CCCNC(=N)N)NC(=O)CNC(=O)[C@@H](NC(=O)[C@H](CCCCN)NC(=O)[C@H](CCC(=O)O)NC(=O)[C@@H](NC(=O)[C@H](CCCCN)NC(=O)[C@H](CCCCN)NC(=O)[C@H](Cc1ccccc1)NC(=O)[C@@H](NC(=O)[C@H](CCCCN)NC(=O)[C@H](Cc1c[nH]c2ccccc12)NC(=O)[C@@H](N)CCCNC(=N)N)[C@@H](C)CC)[C@@H](C)CC)C(C)C)C(C)C)C(=O)N[C@H](C(=O)N[C@@H](CCCCN)C(=O)N[C@@H](C)C(=O)N1CCC[C@H]1C(=O)N1CCC[C@H]1C(=O)N[C@@H](C)C(=O)N[C@H](C(=O)N[C@@H](C)C(=O)N[C@H](C(=O)N[C@H](C(=O)NCC(=O)N[C@@H](CCC(N)=O)C(=O)N[C@@H](C)C(=O)N[C@@H](C)C(=O)N[C@H](C(=O)N[C@H](C(=O)N[C@H](C(=O)N[C@@H](CCCCN)C(N)=O)C(C)C)C(C)C)[C@@H](C)O)C(C)C)C(C)C)C(C)C)[C@@H](C)CC
MIC (KCTC 1682, Mueller-Hinton broth; 16 h, 37 °C; growth inhibition over 99%): 2 µM

CC1NC(=O)C(C(=O)NC(C(=O)NC2C(=O)N3C2SC(C)(C)C3C(=O)O)c2ccccc2)=C1O (centres unmarked)
MIC (broth microdilution; Keio mutant JW0146-2; 18 h, ferric hydroxamate uptake gene): 100 µg/mL

CC(C)(O/N=C(\C(=O)N[C@@H]1C(=O)N2C(C(=O)[O-])=C(C[n+]3ccccc3)CS[C@H]12)c1csc(N)n1)C(=O)O
MIC (DH5a with empty vector): 0.5 µg/mL

CC[C@H](C)[C@H](NC(=O)[C@H](CC(C)C)NC(=O)[C@H](CCCNC(=N)N)NC(=O)[C@@H](N)CCCNC(=N)N)C(=O)N[C@@H](CCCNC(=N)N)C(=O)N[C@H](C(=O)N[C@@H](CC(C)C)C(=O)N[C@H](C(=O)NCC(=O)N1CCC[C@H]1C(=O)N[C@H](C(=O)N[C@H](C(=O)N[C@@H](Cc1ccc(O)cc1)C(=O)N[C@@H](CC(C)C)C(=O)N[C@@H](Cc1ccc(O)cc1)C(=O)N[C@@H](Cc1ccccc1)C(=O)N[C@@H](CCCCN)C(=O)N[C@@H](CC(C)C)C(=O)N[C@@H](CCC(N)=O)C(=O)N[C@@H](CC(C)C)C(=O)N[C@@H](CC(C)C)C(=O)N[C@@H](CCCCN)C(=O)N[C@@H](CCCCN)C(N)=O)[C@@H](C)CC)[C@@H](C)CC)[C@@H](C)O)[C@@H](C)O
MIC (broth microdilution; KCTC 1682, Mueller-Hinton broth; 24 h, 37 °C): 64 µM

CC(C)Oc1c(NC(=O)c2ccc(NC(=O)[C@H](CC(N)=O)NC(=O)c3ccc(NC(=O)c4ccc(C#N)cc4)cc3)cc2)ccc(C(=O)N/N=C/c2ccc(C(=O)O)cc2)c1O
MIC (BW25113; 18 h, 37 °C, dark-adapted state): 0.01 µg/mL

CC[C@H](C)[C@H](NC(=O)[C@H](CCCCN)NC(=O)[C@H](CC(=O)O)NC(=O)[C@H](CC(C)C)NC(=O)[C@@H](NC(=O)[C@H](CC(N)=O)NC(=O)[C@H](CC(C)C)NC(=O)[C@@H](NC(=O)[C@H](Cc1ccccc1)NC(=O)[C@H](CCCCN)NC(=O)[C@H](CCCCN)NC(=O)CNC(=O)[C@H](C)NC(=O)[C@H](CC(N)=O)NC(=O)[C@H](CCCCN)NC(=O)[C@H](Cc1ccccc1)NC(=O)[C@H](CC(N)=O)NC(=O)[C@H](CCC(=O)O)NC(=O)[C@H](Cc1c[nH]c2ccccc12)NC(=O)[C@H](CC(C)C)NC(=O)[C@@H](N)CO)[C@@H](C)CC)[C@@H](C)CC)C(=O)N[C@@H](CCCNC(=N)N)C(N)=O
MIC (ATCC 8739; overnight, 37 °C, 10 % fetal bovine serum): 32 µM

CC[C@H](C)[C@H](NC(=O)[C@H](CCCNC(=N)N)NC(=O)[C@H](CCCNC(=N)N)NC(=O)[C@H](CCCNC(=N)N)NC(=O)[C@H](CCCNC(=N)N)NC(=O)[C@H](CCCNC(=N)N)NC(=O)[C@@H](N)CCCNC(=N)N)C(=O)N[C@@H](CO)C(=O)N[C@@H](Cc1ccccc1)C(=O)N[C@@H](CC(C)C)C(=O)NCC(=O)N[C@@H](CO)C(=O)N[C@@H](CCCCN)C(=O)N[C@@H](CCCCN)C(=O)N[C@@H](CCCCN)C(=O)N[C@@H](CCCCN)C(=O)N[C@@H](CCCCN)C(=O)N[C@@H](CC(C)C)C(=O)N[C@@H](CC(C)C)C(=O)N[C@@H](CCCCN)C(=O)N[C@@H](CCCNC(=N)N)C(N)=O
MIC (checkerboard; 24 h, 37 °C, alone, azithromycin plate): 32 µM

CCCCCCC/C=C/C(=O)N1C(=O)/C(=C(\O)c2ccncc2)C(=O)C1CC(C)C (centres unmarked)
MIC (K12 ΔtolC): 6.25 µg/mL

CC1(C)SC2C(NC(=O)C(NC(=O)C3=C(O)C(Cc4ccc(O)cc4)NC3=O)c3ccccc3)C(=O)N2C1C(=O)O (centres unmarked)
MIC (broth microdilution; Keio mutant JW5086-3; 18 h, ferrienterobactin permease gene): 25 µg/mL

O=C(O)CN(CC(=O)O)CC(=O)O
MIC (VIM-2 producer; 32 µg/mL, MIC of meropenem, with: meropenem): 0.25 µg/mL

Cc1cc(C#N)ccc1C(=O)Nc1ccc(C(=O)N[C@@H](CC(N)=O)C(=O)Nc2ccc(C(=O)Nc3ccc(C(=O)Nc4ccc(C(=O)O)cc4)c(O)c3OC(C)C)cc2)cc1
MIC (K12 ΔtolC): 0.03 µg/mL

C[C@H]1[C@H](NC(=O)/C(=N\OC(C)(C)C(=O)O)c2csc(N)n2)C(=O)N1S(=O)(=O)O
MIC (agar dilution; CDC 1001728 NDM-1): 4 µg/mL

CN1C(=O)Cc2ccc(F)c(CCNC[C@H]3CN(c4ccc5c(n4)NC(=O)CO5)C(=O)O3)c21
MIC (ATCC 25922): 0.03 µg/mL

COc1ccc(CC2NCCc3cc(OC)c(OC)cc32)cc1OC.Cl (centres unmarked)
MIC (24 h, 37 °C): > 1600 µM

For quick reference, copied from above:
CC(C)Oc1c(NC(=O)c2ccc(NC(=O)[C@H](CC(N)=O)NC(=O)c3ccc(NC(=O)c4ccc(C#N)cc4)cc3)cc2)ccc(C(=O)N/N=C/c2ccc(C(=O)O)cc2)c1O
MIC (BW25113; 18 h, 37 °C, dark-adapted state): 0.01 µg/mL
